Published values collected from several papers.
Parts stem from different laboratories: compare values within a part only. Substitutions count along the parent as printed.

Series 1 — technique: RNA Bind-n-Seq; form: RNA; matrix: in vitro; concentration: 100 nM; reference: input RNA pool; reading: higher = stronger binding
Target: RING finger protein unkempt homolog, zinc fingers 1-6, SBP tag (UNK, Homo sapiens, UniProt Q9C0B0, residues 30-357)
UniProt Q9C0B0, sequence (30-357, looked up): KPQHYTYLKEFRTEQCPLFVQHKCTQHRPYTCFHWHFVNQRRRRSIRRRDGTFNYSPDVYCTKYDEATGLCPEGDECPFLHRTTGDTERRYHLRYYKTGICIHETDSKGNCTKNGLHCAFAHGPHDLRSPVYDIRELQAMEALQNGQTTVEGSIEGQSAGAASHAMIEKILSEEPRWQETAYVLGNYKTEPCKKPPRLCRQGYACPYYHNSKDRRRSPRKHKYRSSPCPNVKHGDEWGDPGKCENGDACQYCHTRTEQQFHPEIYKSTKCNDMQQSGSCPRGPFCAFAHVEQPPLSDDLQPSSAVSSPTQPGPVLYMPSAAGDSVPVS
Setting: RNA with constant flanks, vertebrate orthologous sites, ends assumed
Sequence	bound/input enrichment [ratio]
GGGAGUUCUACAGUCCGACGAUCAGUAUCCCAGUUGUACCGUGUUGGGUUGGCAUUGUACAGAAAUUAACAGCCAUAUUGGUCUAGAUACGUUAAACAUAAUUUUUUUCCAUUUGUACAGGGGUAACACACUGUAUUAAAUAUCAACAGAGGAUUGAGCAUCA	1.23
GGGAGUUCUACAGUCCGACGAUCCAAGACUGGUUUGGUAUCUAUAUGUGUACCACUUAAUCCAUUGUUUAAAAAAUCUGUUGGCCUAGGAUUAAAGUUGAAUCAUUCAACACUUUAUAUUGCUUGUAAUCAAUAUUUUGAAAGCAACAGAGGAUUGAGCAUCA	0.31
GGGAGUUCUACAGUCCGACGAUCUACAAUCUUACACUUAAACUGGUAUUUUCAAACAAUAGGAAAUUUUCUUUUUUUACAGAUUAGUGUAUCUGGUUUCUGUAUGGAAGACUAAACUCAUGUUUAUUGCUAAAUGUGGUCUUUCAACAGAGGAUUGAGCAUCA	0.331
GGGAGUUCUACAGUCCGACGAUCUCAGUGCCCUGGGCCGGGACAGAUUUUUUUUAACGUCUUGAAACUUAAACUCUGUGCUUGUAGGAUACUGUAACCUUUUUGUCUUUUUUUUUUUUUAAAACCUCCACCUCCAGUGACUGUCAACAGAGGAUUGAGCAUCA	0.896
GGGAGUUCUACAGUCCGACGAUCAAAUUCAUCUCUUUUUAUAUGUCCAAAAAUGGGUUUAAAUUUUUAAACAGUUGUUUUAAUUAGCUCUGCUGUCAUGAAGUAUUAUUAUAGUUCACCACAAACGUAUCUGUCUGAAUUACUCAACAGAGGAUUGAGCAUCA	0.681
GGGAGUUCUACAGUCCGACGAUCAAAUGCGAUGGUUGAAGGCUCUGAGCUCAAAAAGAUUCGAUCCAAUUCCAGAGUGUAUCACCGAUAUUUUCUUUUAGAUGCAGAUAUGCAGUCCCUACGCUGGGAACCUUCAAAAAAGGACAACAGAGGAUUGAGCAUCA	0.318
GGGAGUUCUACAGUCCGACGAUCCCUCUCACCCCCCCAUCCUCUGACAUGAGUGGAUUCUUUUUUCUUUUUUUACAUUUUGUAUAGAAACAAAUUCAUUUAAACAAACUUAUUAUUAUUAUUAUUUUUUACAAAAUAUAUAUACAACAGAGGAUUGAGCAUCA	1.55
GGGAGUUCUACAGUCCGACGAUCCACCCCUUGAGACAGGGAGUUGAGGGGGGGAGCUCAGGAUGACCCUCAGCUGUUCCAAUCCAGUAUUUUUUUUCUUCCUUUUUAAAAAUACUGUAUUUAUUAUGACGAUGGUGACCCCCCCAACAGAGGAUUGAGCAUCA	0.367

Series 2 — technique: RNAcompete; form: RNA; matrix: in vitro; concentration: 20 nM; setting: 7-mer, probes averaged, single round; reference: mean of 7-mers; reading: higher = stronger binding
Target: PABPC1L2, full length, GST fusion (mouse, UniProt A0ABA7IW68)
Target sequence (chain): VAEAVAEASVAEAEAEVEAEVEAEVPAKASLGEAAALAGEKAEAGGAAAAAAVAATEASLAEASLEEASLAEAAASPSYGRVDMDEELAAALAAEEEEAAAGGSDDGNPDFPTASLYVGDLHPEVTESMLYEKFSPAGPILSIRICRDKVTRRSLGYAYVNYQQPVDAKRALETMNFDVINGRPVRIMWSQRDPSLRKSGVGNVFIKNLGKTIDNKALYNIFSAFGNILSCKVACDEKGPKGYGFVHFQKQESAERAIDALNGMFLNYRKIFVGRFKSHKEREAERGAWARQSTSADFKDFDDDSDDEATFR
Sequence	7-mer Z-score
GAUGAUC	-0.0826
AGGCGCU	-0.0138
GACUCGA	-0.238
AGUCAUC	-0.378
CUGAUGC	-0.199
UCCCGGC	-0.374
UGACAUG	-0.0446
AGAUCAA	0.0768
ACUUAUA	0.0424
UCUUCAU	-0.342
GUUUUCA	-0.429
AAUAGCU	-0.0355
CGCUUAC	-0.364
AAUUAAU	0.137
ACGUCGG	-0.0754
AAAGCCC	0.361
ACAUUCA	0.00617

Series 3 — technique: RNA Bind-n-Seq; form: RNA; matrix: in vitro; concentration: 365 nM; reference: no-protein control; reading: higher = stronger binding
Target: RNA binding protein fox-1 homolog 2, RRM domain, GST-SBP tag (RBFOX2, Homo sapiens, UniProt O43251-10, residues 100-194)
Setting: natural RNA segment, single round, ends assumed
Target sequence (chain): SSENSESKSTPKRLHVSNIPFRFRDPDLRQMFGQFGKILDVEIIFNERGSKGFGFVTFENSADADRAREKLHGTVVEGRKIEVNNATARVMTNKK
Sequence	RBNS enrichment (R)
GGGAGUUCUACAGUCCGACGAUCUAGAAGGGGAUCCUAACAGGGACUUCUGGAGCAGACAGAGCCUGCCAGUGCCUGUGGAGUCAGCCAGCCGAGGGUCUGCCUCCUCAGCUGCCCCAGGGGGGCCUCCCUCCUGGAAUUCUCGGGUGCCAA	0.798
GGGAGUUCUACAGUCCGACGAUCCUUUUACAUGAGGCAAGAAGGAAGUAGUUGUAGAUAGAAUCAUUUUCUAGUUCUUUAAAUGAGACAAUCACUUUGUUUUCUAAUAGAUGUGACCUGUGUAACUUAAAAAAUGGAAUUCUCGGGUGCCAA	0.471
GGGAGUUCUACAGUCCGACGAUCAUUCAAGAAAGCUUUAAAAGUUUUAUAUCCAGAUAUACAACCACAAUAAAGCAAAAUAACCUACUAUCAAAAUAGAAAUGUUGCUAUCUUUAUAAGUGCAAUUUAAUUUGUGGAAUUCUCGGGUGCCAA	0.477
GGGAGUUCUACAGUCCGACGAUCUACUAGCCUCAAGUGUGCUAUUCCCAUGUGGCUUUAUCCUGUCCGUGUUGUUGAGAGGAUGAUGUUGUAAGGGUACCUUAAAACAAGAGACUCGCUUGUAUUUUAAGAGAUGGAAUUCUCGGGUGCCAA	0.254
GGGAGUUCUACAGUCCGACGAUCUUGUGUUGUGAAGGGGUAGAAGAUCUCUGAAACUUGUCUUGAGAUUGAACUCAUUCCCUGUUCCACAAACCCAUAUGUAUCCUUUCCUCUACCUCCUCCUUUCCCAAUUAUGGAAUUCUCGGGUGCCAA	0.516
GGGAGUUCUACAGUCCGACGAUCCUGAAGAACAGUACUCCACAAACAUGGGUGGUAACAAGAGUUCCAUCCCAGGAGGCCAAACGGUGCAACAGAAGGGUAGGUUAGAUGCUAUUAAGAAGGCACUUAAUAGUUGGAAUUCUCGGGUGCCAA	0.498
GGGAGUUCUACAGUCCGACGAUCAUUCUUGACUUCUGUGCACCUGCAGGCUUAACAGCACAUAGAAGCUGCCAAGGCUUGGGGCUUCCACUCUGAAGCCACAGCCCGAGCUGUAUGUUGGCCCCUUUCAGCCAUGGAAUUCUCGGGUGCCAA	0.383
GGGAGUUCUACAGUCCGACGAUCUUUUGUGUGUGCCAAUUUUGUUAUCACAUCCCUAUGAAGUUGAAAAAUAAAGUUAAUUUUGACCAAAGACUUCAUUUGUAACCCAUGAUGUUCAUCUGUGUGUGCACAGGUGGAAUUCUCGGGUGCCAA	0.282

Series 4 — technique: DHFR PCA, deep sequencing; matrix: yeast; together with: (+)-ABA 17 µM; reference: wild-type fitted maximum; reading: higher = stronger binding
Target: ABI1, truncated, D143A, DHFR fusion (Arabidopsis thaliana)
Setting: methotrexate growth selection, single substitutions
Starting sequence: PYL1, truncated, DHFR fusion (Arabidopsis thaliana); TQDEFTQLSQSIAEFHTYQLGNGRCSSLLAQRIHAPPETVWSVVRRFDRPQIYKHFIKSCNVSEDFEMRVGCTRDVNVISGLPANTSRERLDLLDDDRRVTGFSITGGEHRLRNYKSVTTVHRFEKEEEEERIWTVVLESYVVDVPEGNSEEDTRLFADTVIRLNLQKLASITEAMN; partner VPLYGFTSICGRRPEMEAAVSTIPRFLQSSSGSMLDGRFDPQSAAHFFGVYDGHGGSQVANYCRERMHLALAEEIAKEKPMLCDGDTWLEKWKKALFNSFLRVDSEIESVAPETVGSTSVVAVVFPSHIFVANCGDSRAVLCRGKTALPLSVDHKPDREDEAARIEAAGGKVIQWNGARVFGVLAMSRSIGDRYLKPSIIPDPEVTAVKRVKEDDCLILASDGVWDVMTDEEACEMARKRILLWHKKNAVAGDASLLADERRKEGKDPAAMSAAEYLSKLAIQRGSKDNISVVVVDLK
Variant	relative binding score
M68P	69%
H55T	91.9%
H110V	2.97%
I57S	5.26%
R49E	76.9%
F157K	-23.9%
F5A	72.1%
W41C	19.4%
V118S	18.9%
D75I	89.7%
R99P	-24.2%
T101V	82.7%
Q10K	85.9%
R111A	14.7%
E4D	78.6%
V145K	29.6%
R163V	10.9%
S117R	3.27%
F5K	68.8%
D144G	12.3%
L94Y	72.4%
E131S	87.6%
H16A	-13.7%
A170P	-7%
P50D	-11.4%

A few entries again (series 4):
Variant	relative binding score
D75I	89.7%
R99P	-24.2%
T101V	82.7%
Q10K	85.9%
